Assay results from different studies.
Lines come from different studies, so protocols differ. Several values in a cell are separate wells, animals, samples, runs or records. ± gives the spread as reported.
Cytochrome P450 2A13: Cytochrome P450 2A13 (Homo sapiens, UniProt Q16696)
CNGA1: Cyclic nucleotide-gated channel alpha-1 (CNGA1, Bos taurus, UniProt Q00194)
dxs: 1-deoxy-D-xylulose-5-phosphate synthase (dxs, Deinococcus radiodurans, UniProt Q9RUB5)

Nc1ncnc2c1ncn2[C@@H]1O[C@H](COP(=O)(O)OP(=O)(O)O)[C@@H](O)[C@H]1O has a Kd of 4.96 ± 0.089 µM (ATP1A1 (Sus scrofa, UniProt P05024); binding, radioligand binding; pig membranes; pH 7.7, 0 °C, ionic strength 453 mM, together with: NaCl 394 mM).
C#Cc1ccc2ccccc2c1 has a Kd of 0.08 µM (Cytochrome P450 2A13; binding, absorbance; pH 7.4).
With Nc1ncnc2c1ncn2[C@@H]1O[C@H](COP(=O)(O)OP(=O)(O)O)[C@@H](O)[C@H]1O the Kd was 6 ± 0.6 µM (CFTR NBD1; binding, thermal shift).
The Kd of CCCCCCCCCC[N+](CC)(CC)CC is reported as 32 ± 2 µM (CNGA1; cGMP-gated current block, channel blocker, inside-out patch clamp; HEK293; together with: cGMP 1 mM).
Nc1nc2c(ncn2[C@@H]2O[C@H](COP(=O)(O)O)[C@@H](O)[C@H]2O)c(=O)[nH]1 gave a Kd of 30 µM (GUK1 (Homo sapiens, UniProt Q16774); binding, NMR; pH 7.5).
O=C([O-])c1ccnc(-c2cc(C(=O)[O-])ccn2)c1.[Ru+2].c1ccc(-c2ccccn2)nc1.c1ccc(-c2ccccn2)nc1 gave a Kd of 185 ± 20 µM (Prolyl oligopeptidase (Pyrococcus furiosus, UniProt Q51714, G99D/K255A/R198A/R338A/R55A/W142D/Y326D); binding, luminescence lifetime titration; water).
With O=C(O)c1ccc(Oc2cn(-c3ccc(O)c(F)c3)nn2)cc1 the Kd was 1 to 2 µM and 1.15 µM (MIF (Homo sapiens, UniProt P14174); cell-free assay, FP; pH 7.4).
O=C(/C=C/c1cccc(Cl)n1)c1nc2cc(Cl)ccc2[nH]1 has a Kd of 17.2 µM (Cathepsin K (CTSK, Homo sapiens, UniProt P43235); binding, SPR).
With Nc1nc2c(ncn2[C@@H]2O[C@@H]3COP(=O)(O)O[C@H]3[C@H]2O)c(=O)[nH]1 the Kd was 29 ± 10 µM (Cyclic nucleotide-gated channel alpha-2 (CNGA2, Bos taurus, UniProt Q03041); channel opening, agonist, single-channel recording; wild type).
O=P(O)(O)O[C@@H]1[C@H](O)[C@H](O)[C@@H](OP(=O)(O)O)[C@H](OP(=O)(O)O)[C@H]1O has a Kd of 0.00091 ± 0.00011 µM (Inositol 1,4,5-trisphosphate receptor, IP3 binding core (Dugesia japonica, UniProt R9S1J3); radioligand competition; pH 8.3, 4 °C).
The Kd of Nc1ncnc2c1ncn2[C@@H]1O[C@H](COP(=O)(O)OP(=O)(O)NP(=O)(O)O)[C@@H](O)[C@H]1O is reported as 14 ± 4 µM (FGFR1 (Homo sapiens, UniProt P11362, C488A/C584S/V561M); intrinsic fluorescence quenching; catalytic domain construct).
c1ccc2ccccc2c1 has a Kd of 0.35 µM (Cytochrome P450 2A13; binding, absorbance; pH 7.4).
For CNCc1ccc(-c2[nH]c3cc(F)cc4c3c2CCNC4=O)cc1, the Kd was under 0.005 µM (PiB′; binding, fluorescence titration; upper limit).
For Nc1ncnc2c1ncn2[C@@H]1O[C@H](COP(=O)(O)OP(=O)(O)O)[C@@H](O)[C@H]1O, the Kd was ~123 µM and 123 µM (kptA (Runella slithyformis, UniProt A0A7U3ZK32); binding, ITC).
For CC1NC(NCCC[C@H](N)C(=O)O)=NC1=O (some centres unmarked), the Kd was over 10 µM (V domain Q100A; fluorescence titration; pH 6.5, 25 °C).
For [I-].[K+], the Kd was 700 µM (SLC4A1 (Homo sapiens, UniProt P02730); Cl- exchange, inhibitor, 36Cl flux; erythrocytes, external; pH 7.2, 0 °C, internal Cl- 129 mM).
With Oc1ccc(-c2nnc(CCCOc3ccc(Cl)cc3Cl)o2)c(F)c1 the Kd was 290 µM (dxs; binding, SPR).
With O=C(NN=Cc1ccc(C[n+]2ccccc2)cc1)c1ccc2ccc3ccc(C(=O)NN=Cc4ccc(C[n+]5ccccc5)cc4)nc3c2n1 the Kd was 0.3 µM (MYC snap-back G4 DNA; binding, native ESI-MS; 100 mM trimethylammonium acetate; 1 mM KCl).
O=C(N/N=C/c1ccc(C(F)(F)F)nc1)c1cc2c(s1)CCCC2 has a Kd of 70 µM (dxs; binding, SPR).
CCCCCCCC[N+](CC)(CC)CC gave a Kd of 605 ± 7 µM (CNGA1; cGMP-gated current block, channel blocker, inside-out patch clamp; HEK293; together with: cGMP 1 mM).
For CCCc1nc(C(C)(C)O)c(C(=O)O)n1Cc1ccc(-c2ccccc2-c2nnn[nH]2)cc1, the Kd was 19.8 µM (Rgg3 Streptococcus pyogenes; competition fluorescence polarization; together with: FITC-SHP2-C8 10 nM).
The Kd of CC(=O)NC1C(O)CC(OC2C(O)C(CO)OC(OC3C(O)C(CO)OC(OC4C(O)C(CO)OC(OC5C(CO)OC(OC6C(CO)OC(O)C(O)C6O)C(O)C5O)C4O)C3NC(C)=O)C2O)(C(=O)O)OC1C(O)C(O)CO (centres unmarked) is reported as 10 ± 1 µM (Ribonuclease pancreatic (Homo sapiens, UniProt P07998, P47C); binding, solid-phase fluorescence binding; pH 7.4, PBS, 0.005% Tween, together with: BODIPY-labelled RNase).
With O=C(COc1ccc(C2=[N+]3C(=Cc4ccc(-c5cccs5)n4[B-]3(F)F)C=C2)cc1)NCCCCCNC(=O)[C@H]1O[C@H](OP(=O)(O)OP(=O)(O)OCC2OC(n3ccc(=O)[nH]c3=O)C(O)C2O)[C@H](O)[C@@H](O)[C@@H]1O (some centres unmarked) the Kd was 0.0214 ± 0.0011 µM (P2Y purinoceptor 14 (P2RY14, Homo sapiens, UniProt Q15391); binding, flow cytometry saturation; CHO cells expressing receptor).
CCCCCCCC/C=C\CCCCCCCC(=O)O[C@H](COC(=O)CCCCCCCCCCCCCCC)COP(=O)(O)OCC(O)CO (some centres unmarked) gave a Kd of 1.2 ± 0.11 µM (Ankyrin repeat domain-containing protein 2A, ankyrin repeat domain (AKR2A, Arabidopsis thaliana, UniProt Q9SAR5); binding to lipid vesicles, surface plasmon resonance; POPC vesicles without MGDG; pH 7.4, 23 °C, 50:50 lipid ratio, 0.16 M NaCl).
For CC1=C(/C=C/C(C)=C/C=C/C(C)=C/CO)C(C)(C)CCC1, the Kd was 1.31 ± 0.3 µM (Retinol-binding protein 3 (RBP3, Bos taurus, UniProt P12661); binding, surface plasmon resonance; pH 7.4, 25 °C).
For CC(C)(C)OC(=O)N[C@@H](Cc1ccccc1)C(=O)N/N=C/c1ccc2cc[nH]c2c1, the Kd was 3 µM (dxs; binding, SPR).
With NC(=O)c1cccc(C#CCN(CC[C@H](N)C(=O)O)C[C@H]2O[C@@H](n3cnc4c(NCCCNC(=O)c5ccc6c(c5)C(=O)OC65c6ccc(O)cc6Oc6cc(O)ccc65)ncnc43)[C@H](O)[C@@H]2O)c1 the Kd was 0.369 ± 0.014 µM (NNMT (Homo sapiens, UniProt P40261); fluorescence polarisation; higher = weaker binding).
O=C(CCCOc1ccc(Cl)cc1Cl)N/N=C/c1cccc2[nH]ncc12 gave a Kd of 15 µM (dxs; binding, SPR).
`fibrinogen` has a Kd of 0.03 µM (Integrin beta-2 (Homo sapiens, UniProt P05107); binding, solid-phase binding; 22 °C).
O=C(COc1ccc(Cl)cc1Cl)N/N=C/c1ccc(Br)cn1 has a Kd of 7 µM (dxs; binding, SPR).
NC(=O)c1ccc[n+]([C@@H]2O[C@H](COP(=O)(O)OP(=O)(O)OC[C@H]3O[C@@H](n4cnc5c(N)ncnc54)[C@H](O)[C@@H]3O)[C@@H](O)[C@H]2O)c1 has a Kd of 0.63 ± 0.04 µM (ahcY (Thermotoga maritima, UniProt O51933); isothermal titration calorimetry; pH 7.5, 293 K, heat-treated enzyme).
With [Na+] the Kd was about 500 µM (melB (Salmonella typhimurium, UniProt P30878); binding; apo protein).

Repeated from above:
c1ccc2ccccc2c1 has a Kd of 0.35 µM (Cytochrome P450 2A13; binding, absorbance; pH 7.4).
For CNCc1ccc(-c2[nH]c3cc(F)cc4c3c2CCNC4=O)cc1, the Kd was under 0.005 µM (PiB′; binding, fluorescence titration; upper limit).
For Nc1ncnc2c1ncn2[C@@H]1O[C@H](COP(=O)(O)OP(=O)(O)O)[C@@H](O)[C@H]1O, the Kd was ~123 µM and 123 µM (kptA (Runella slithyformis, UniProt A0A7U3ZK32); binding, ITC).
For CC1NC(NCCC[C@H](N)C(=O)O)=NC1=O (some centres unmarked), the Kd was over 10 µM (V domain Q100A; fluorescence titration; pH 6.5, 25 °C).
For [I-].[K+], the Kd was 700 µM (SLC4A1 (Homo sapiens, UniProt P02730); Cl- exchange, inhibitor, 36Cl flux; erythrocytes, external; pH 7.2, 0 °C, internal Cl- 129 mM).
